Experimental data of several laboratories.
Every numbered part comes from another study and shows a few of its results, in no order. Positions count from the first letter of the parent shown.

Block 1
Target: ABI1, truncated, D143A, DHFR fusion (Arabidopsis thaliana)
Method: DHFR PCA, deep sequencing
Sample: yeast
Setting: methotrexate growth selection, single substitutions
With: (+)-ABA 17 µM
Baseline: wild-type fitted maximum
Direction: higher = stronger binding
Parent: PYL1, truncated, DHFR fusion (Arabidopsis thaliana); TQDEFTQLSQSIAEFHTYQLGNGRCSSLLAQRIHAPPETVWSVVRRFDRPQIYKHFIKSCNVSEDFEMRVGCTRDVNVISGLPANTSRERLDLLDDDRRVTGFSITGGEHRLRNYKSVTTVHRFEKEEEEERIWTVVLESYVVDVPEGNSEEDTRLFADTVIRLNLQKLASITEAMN; partner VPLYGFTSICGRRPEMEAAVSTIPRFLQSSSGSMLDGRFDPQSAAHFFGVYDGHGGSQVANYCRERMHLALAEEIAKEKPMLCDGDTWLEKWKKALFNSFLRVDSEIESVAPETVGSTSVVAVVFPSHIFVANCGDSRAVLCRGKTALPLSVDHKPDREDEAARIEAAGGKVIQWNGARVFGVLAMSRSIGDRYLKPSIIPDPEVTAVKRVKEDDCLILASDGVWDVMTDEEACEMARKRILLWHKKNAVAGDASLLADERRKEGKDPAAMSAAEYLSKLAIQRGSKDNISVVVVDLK
Change	relative binding score [%]
S87Y	30.4
N165F	-9.91
K54R	17.9
G148V	11.1
L20S	85.3
D65T	74.5
R99W	106
G148H	55

Block 2
Target: Centromere-binding protein 1, full length, His-tagged (CBF1, Saccharomyces cerevisiae, UniProt P17106, residues 1-351)
Sequence of UniProt P17106 (whole entry, looked up): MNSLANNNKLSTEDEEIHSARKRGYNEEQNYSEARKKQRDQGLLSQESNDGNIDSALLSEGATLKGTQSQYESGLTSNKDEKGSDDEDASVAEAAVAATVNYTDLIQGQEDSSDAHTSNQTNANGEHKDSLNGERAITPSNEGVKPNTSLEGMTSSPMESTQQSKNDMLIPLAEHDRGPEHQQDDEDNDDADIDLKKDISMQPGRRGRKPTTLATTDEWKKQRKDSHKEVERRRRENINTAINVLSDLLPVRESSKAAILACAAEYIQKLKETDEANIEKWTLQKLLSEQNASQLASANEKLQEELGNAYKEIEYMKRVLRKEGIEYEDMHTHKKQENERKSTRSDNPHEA
Method: competition protein-binding microarray
Form: double-stranded DNA, one strand shown
Sample: in vitro
Concentration: 2 µM
Setting: whole 60-bp probe, lowest competitor level
With: Pho4 competitor, 0.05 µM
Direction: higher = stronger binding
Oligonucleotide	fluorescence intensity
TATCGTCAATCAACAAGCATGACAGACCAGCAACATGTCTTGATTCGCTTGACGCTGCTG	117 a.u.
CGTCCTAGCGATTGACCTGTGGGTGCCATGAGGAAGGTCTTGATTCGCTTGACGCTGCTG	70.9 a.u.
CGGGGTTAAGTTTGGTACGTGGGTGGCTTGCAGCAGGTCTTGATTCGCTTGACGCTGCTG	63 a.u.
CTAACGAAGGTTTGTCACTGAACTTACAAGCCAAGTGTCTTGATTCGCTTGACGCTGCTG	66.5 a.u.
GACCTGGAGGAAGAACATGTGCCCTTGATTCAAGGCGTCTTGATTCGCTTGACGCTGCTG	160 a.u.
AAACCAATTGGTCGGCACGTTCTGGCAAATGCGTCCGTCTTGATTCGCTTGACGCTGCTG	143 a.u.
ATTACCCTTGTTTTTCAATTGAAAACCCGGAACGATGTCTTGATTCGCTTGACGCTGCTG	79 a.u.
CGGGGTTAAGTTTGTCACAATACTTGCTTGCAGCAGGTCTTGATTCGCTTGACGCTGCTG	81 a.u.

Block 3
Target: Prothrombin, mature alpha-thrombin (F2, Homo sapiens, UniProt P00734)
Method: aptamer microarray, sandwich
Form: DNA with 2'F-ANA
Sample: in vitro
Concentration: 200 nM
Setting: whole 15-mer aptamer, many near background
With: Cy3 exosite-II aptamer, 400 nM
Direction: higher = stronger binding
Oligonucleotide: GGTTGGTGTGGTTGG
Modification	mean fluorescence intensity [a.u.]
2'F-ANA at 2 4 7 11 14	119
2'F-ANA at 3 5 6 7 9 10 13	84.8
2'F-ANA at 5 7 10 12 14 15	42.5
2'F-ANA at 1 4 9 13	74.9
2'F-ANA at 1 2 3 5 6 8 9 10 11 15	52
2'F-ANA at 1 3 4 6 9 11 13 14 15	67.3
2'F-ANA at 4 5 6 7 9 10 11 13 14 15	48.6
2'F-ANA at 2 3 9 11 12 15	1040

Single results of other studies
Parent: PafA, mature enzyme, eGFP fusion (Elizabethkingia meningoseptica, UniProt Q9KJX5); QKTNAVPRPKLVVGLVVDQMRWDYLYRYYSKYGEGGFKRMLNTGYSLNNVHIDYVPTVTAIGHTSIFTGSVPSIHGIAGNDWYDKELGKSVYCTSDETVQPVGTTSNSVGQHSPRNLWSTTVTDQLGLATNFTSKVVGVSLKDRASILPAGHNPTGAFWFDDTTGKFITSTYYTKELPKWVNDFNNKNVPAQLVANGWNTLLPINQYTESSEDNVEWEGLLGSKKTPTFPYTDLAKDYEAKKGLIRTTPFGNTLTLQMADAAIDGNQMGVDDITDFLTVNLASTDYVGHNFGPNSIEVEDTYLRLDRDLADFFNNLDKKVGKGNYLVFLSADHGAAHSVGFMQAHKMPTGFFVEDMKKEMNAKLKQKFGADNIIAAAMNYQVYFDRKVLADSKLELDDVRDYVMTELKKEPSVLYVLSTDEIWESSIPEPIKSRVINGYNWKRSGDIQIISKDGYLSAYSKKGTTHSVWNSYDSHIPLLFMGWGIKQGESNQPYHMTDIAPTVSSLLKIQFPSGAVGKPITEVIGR
Change	target	assay	test system	conditions	scale	measurement	value
D308V	vanadate, free oxyanion	microfluidic competitive inhibition	in vitro, cell-free expressed	not given, derived from inhibition constants, unchanged parent 676 nM	lower = stronger binding	oxyanion analog dissociation constant	740 nM

A few entries again (block 1):
Change	relative binding score [%]
G148V	11.1
